Experimental data collected from several papers.
Compare with care: the assays were run in different laboratories. Several values in a cell are separate wells, animals, samples, runs or records. Numbers after ± are the reported error.

`C=C(C)[C@@H]1CC[C@]2(NCCN3CCS(=O)(=O)CC3)CC[C@]3(C)[C@H](CC[C@@H]4[C@@]5(C)CC=C(C6=CC[C@@](CF)(C(=O)O)CC6)C(C)(C)[C@@H]5CC[C@]43C)[C@@H]12` has an AUC(0-tau) of 7460 ng·h/mL (LC-MS/MS; HIV-1-infected treatment-naive adults, plasma; oral, 40 mg once daily, day 7, monotherapy).
For `Cc1cc(Nc2ncc(Cl)c(Nc3ccccc3S(=O)(=O)C(C)C)n2)c(OC(C)C)cc1C1CCNCC1`, the AUC(0-tau) was 0.36 µmol·h/L and 0.335 µmol·h/L (measured: unbound drug; human, plasma; oral, 750 mg/day, after daily dose 9).
For `C#C[C@]1(O)CC[C@H]2[C@@H]3CCc4cc(O)ccc4[C@H]3CC[C@@]21C`, the AUC(0-tau) was 1.85 ± 0.433 ng·h/mL (HIV-positive women, serum; oral, 30 µg, 24 h after last dose, control arm, steady state).
`C[C@H]1CN(C(=O)CC#N)[C@]12CCN(c1ncnc3[nH]ccc13)C2` gave an AUC(0-tau) of 25.2 ± 11.3 ng·h/mL (atopic dermatitis patients, plasma; topical, 5 g of 3% ointment twice daily, day 7).
With `Nc1cc(F)ccc1NC(=O)c1ccc(CNC(=O)/C=C/c2cccnc2)cc1` the AUC(0-tau) was 6010 ng·h/mL (Japanese patients, plasma; oral, 40 mg twice weekly, cycle 1 day 25).
`C[C@@H](N)c1cc(Cl)ccc1Cn1c(=S)[nH]c(=O)c2[nH]ccc21` gave an AUC(0-tau) of 0.416 µmol·h/L (healthy Japanese volunteers, plasma; oral, 10 mg once daily, day 1, geometric mean).
The AUC(0-tau) of `C[C@]12C=CC(=O)C=C1CC[C@@H]1[C@@H]2[C@@H](O)C[C@@]2(C)[C@H]1C[C@H]1O[C@@H](C3CCCCC3)O[C@]12C(=O)CO` is reported as 0.475 ng·h/mL (children with asthma, serum; inhaled, 160 µg ciclesonide, day 7, geometric LS mean, per-protocol, no spacer).
`Cc1ccc(NC(=O)c2ccc(CN3CCN(C)CC3)cc2)cc1Nc1nccc(-c2cncc(-c3oncc3C)c2)n1` has an AUC(0-tau) of 6080 ng·h/mL (healthy volunteers, plasma; oral, 12.5 mg once daily, day 1, 7-day dosing, mean).

Some of these lines once more:
`C[C@H]1CN(C(=O)CC#N)[C@]12CCN(c1ncnc3[nH]ccc13)C2` gave an AUC(0-tau) of 25.2 ± 11.3 ng·h/mL (atopic dermatitis patients, plasma; topical, 5 g of 3% ointment twice daily, day 7).
